Experimental data from different studies.
Each line is one published result; not all experiments were run side by side. Converted amounts (≈) assume the structure as drawn.

| SMILES | tested on | test | test system | conditions | scale | measurement | result |
| --- | --- | --- | --- | --- | --- | --- | --- |
| CNS(=O)(=O)Nc1nccc(Cc2c(C)c3ccc(Oc4ncccc4F)cc3oc2=O)c1F | T98G | cell viability |  | 7 days |  | IC50 | > 1000 nM |
| COC1CN([C@H]2CC[C@H]([C@@]3(C)Oc4c(Cl)cc(C(=O)NCc5c(SC)cc(C)[nH]c5=O)c(C)c4O3)CC2)C1 |  | RNA-seq, item: BCL9 mouse homolog | mouse, HT-1376 xenograft, whole blood | dose not given | relative to: vehicle | log2 fold change | 0.108 |
| Cc1ncsc1-c1ccc(C(C)NC(=O)C2CC(O)CN2C(=O)C(NC(=O)CCCCCCCCCCN2CCCC(Nc3ncc(Cl)c(Nc4ccccc4S(=O)(=O)C(C)C)n3)C2)C(C)(C)C)cc1 (stereo not shown) | 22Rv1 | RNA-seq, item: POLM mRNA |  | concentration not given | relative to: DMSO | log2 fold change | -1.01 |
| C=C(NC(=O)c1csc(-c2nc3c(cc2O)-c2nc(cs2)C(=O)NC(C(C)O)C(=O)NC(=C(C)OC)c2nc(cs2)C(=O)NC2c4nc(cs4)C(=O)NC(COC(=O)c4c5c6c(cccc6n4O)COC(=O)C(OC4CC(C)(O)C(N(C)C)C(C)O4)C2OC5)c2nc-3cs2)n1)C(N)=O (stereo not shown) | Streptococcus pneumoniae |  | penicillin-resistant, 10 isolates | pH 8.5 |  | MIC50 | 0.0156 µg/mL (≈ 0.0109 µM) |
| CCN(CC)CC(=O)Nc1cccc(-n2cc(-c3ccc4ccc(-c5cn(-c6cccc(NC(=O)CN(CC)CC)c6)nn5)cc4c3)nn2)c1 | RCC4 | PCR angiogenesis array, item: SPHK1 |  | 5 x IC50, 2 h, normoxia | relative to: untreated | fold regulation | 1.07 |
| CN1CCCNC(=O)c2cccc(c2)C(=O)NCCCN(C)CCCNc2cccc3c2C(=O)c2cccc(c2C3=O)NCCC1 | SAS | RNA-Seq, item: RASL10B mRNA |  | 1 µM, 6 h | relative to: untreated cells | log2 fold change | 1.26 |
| Cn1ncc2cc(-c3cncc(Cl)c3N3CCC4(CCNC4=O)CC3)ccc21 | LS174T | gene expression, microarray, item: CBWD1 mRNA |  | concentration not given, 24 h | relative to: untreated cells | log2 fold change | 2.29 |
| C=CC(=O)Nc1cccc(Cn2ncc3cnc(Nc4cnn(CCOC)c4)nc32)c1 | human AMPK-alpha2 | KINOMEscan |  | 100 nM | relative to: control | binding | 100% |
| Nc1ncc(-c2cc(-c3cnn(CC(F)(F)F)c3)ncc2F)nc1C(=O)NC1CNCC(F)C1 (stereo not shown) | ROCK2 | KINOMEscan |  | 1 µM | relative to: DMSO control | remaining binding | 51% |
| C=CC(=O)N1[C@@H](c2ccc3c(c2)OCO3)c2[nH]c3ccccc3c2C[C@H]1C(=O)N1CCN(C)CC1 | human cyclin E1 N112C-3xFLAG:CDK2 | co-IP with TMT proteomics, item: SAMHD1 |  | concentration not given, Q9Y3Z3 | relative to: wild type DMSO | relative co-enrichment | 79% |
